Published values gathered from unrelated publications.
Each line is one published result; not all experiments were run side by side.
Organism: Acinetobacter baumannii

Cn1c(=O)ccc2ccc(F)c(CCNC[C@H]3CN(c4ccc5c(n4)NC(=O)CO5)C(=O)O3)c21 — MIC (ATCC 19606): 0.015 µg/mL
CC[C@H](C)[C@H](NC(=O)[C@H](CC(C)C)NC(=O)[C@@H](NC(=O)[C@@H](NC(=O)[C@@H](NC(=O)[C@H](CCCNC(=N)N)NC(=O)[C@H](CCCNC(=N)N)NC(=O)[C@H](CCCNC(=N)N)NC(=O)[C@@H](N)CCCNC(=N)N)C(C)C)[C@@H](C)CC)[C@@H](C)CC)C(=O)N[C@H](C(=O)N[C@@H](CC(C)C)C(=O)N[C@@H](CCCNC(=N)N)C(=O)N[C@@H](CCCNC(=N)N)C(=O)N[C@@H](CCCNC(=N)N)C(=O)N[C@@H](CCCNC(=N)N)C(=O)N[C@@H](Cc1ccccc1)C(=O)N[C@@H](CO)C(=O)N[C@@H](C)C(=O)N[C@@H](Cc1ccc(O)cc1)C(N)=O)C(C)C — MIC (broth microdilution; ATCC 17978; highest value reported): 8 µM
CC[C@H](C)[C@H](NC(=O)CN)C(=O)NCC(=O)N[C@@H](C)C(=O)N[C@H](C(=O)N[C@@H](CC(C)C)C(=O)N[C@@H](CCCCN)C(=O)N[C@H](C(=O)N[C@@H](CC(C)C)C(=O)N[C@H](C(=O)N[C@H](C(=O)NCC(=O)N[C@@H](CC(C)C)C(=O)N1CCC[C@H]1C(=O)N[C@@H](C)C(=O)N[C@@H](CC(C)C)C(=O)N[C@H](C(=O)N[C@@H](CO)C(=O)N[C@@H](Cc1c[nH]c2ccccc12)C(=O)N[C@H](C(=O)N[C@@H](CCCCN)C(=O)N[C@@H](CCCNC(=N)N)C(=O)N[C@@H](CCCCN)C(=O)N[C@@H](CCCNC(=N)N)C(=O)N[C@@H](CCC(N)=O)C(=O)N[C@@H](CCC(N)=O)C(N)=O)[C@@H](C)CC)[C@@H](C)CC)[C@@H](C)O)[C@@H](C)O)C(C)C)C(C)C — MIC (broth microdilution, MH medium; KCCM 40203; 16 h, 37 °C, growth inhibition over 99%): 4 µM
CC[C@H](C)[C@H](NC(=O)[C@H](CC(C)C)NC(=O)[C@H](CCCNC(=N)N)NC(=O)[C@@H](N)CCCNC(=N)N)C(=O)N[C@@H](CCCNC(=N)N)C(=O)N[C@@H](CCCCN)C(=O)N[C@@H](CC(C)C)C(=O)N[C@@H](CCCCN)C(=O)NCC(=O)N1CCC[C@H]1C(=O)N[C@H](C(=O)N[C@H](C(=O)N[C@@H](Cc1ccc(O)cc1)C(=O)N[C@@H](CC(C)C)C(=O)N[C@@H](Cc1ccc(O)cc1)C(=O)N[C@@H](Cc1ccccc1)C(=O)N[C@@H](CCCCN)C(=O)N[C@@H](CC(C)C)C(=O)N[C@@H](CCC(N)=O)C(=O)N[C@@H](CC(C)C)C(=O)N[C@@H](CC(C)C)C(=O)N[C@@H](CCCCN)C(=O)N[C@@H](CCCCN)C(N)=O)[C@@H](C)CC)[C@@H](C)CC — MIC (ATCC BAA1605, Mueller-Hinton broth; 24 h): 32 µM
CO/N=C(\C(=O)N[C@@H]1C(=O)N2C(C(=O)O)=C(COC(C)=O)CS[C@H]12)c1csc(N)n1 — MIC (carbapenem-resistant clinical isolate): > 32 µg/mL
CC[C@H](C)[C@H](NC(=O)[C@H](CCCCN)NC(=O)[C@H](CCCCN)NC(=O)CNC(=O)[C@H](CCCCN)NC(=O)[C@H](CC(C)C)NC(=O)[C@H](CCCCN)NC(=O)[C@H](CCCNC(=N)N)NC(=O)[C@@H](NC(=O)[C@H](CC(C)C)NC(=O)[C@H](CCCNC(=N)N)NC(=O)[C@@H](N)CCCNC(=N)N)[C@@H](C)CC)C(=O)N[C@@H](Cc1ccc(O)cc1)C(=O)N[C@@H](CC(C)C)C(=O)N[C@@H](Cc1ccc(O)cc1)C(=O)N[C@@H](Cc1ccccc1)C(=O)N[C@@H](CCCCN)C(=O)N[C@@H](CC(C)C)C(=O)N[C@@H](CCC(N)=O)C(=O)N[C@@H](CC(C)C)C(=O)N[C@@H](CC(C)C)C(=O)N[C@@H](CCCCN)C(=O)N[C@@H](CCCCN)C(N)=O — MIC (ATCC BAA1605, Mueller-Hinton broth; 24 h): 4 µM
CC[C@H](C)[C@H](NC(=O)CNC(=O)[C@H](CC(=O)O)NC(=O)[C@H](CCCNC(=N)N)NC(=O)[C@@H](NC(=O)[C@H](CC(N)=O)NC(=O)[C@H](CCCNC(=N)N)NC(=O)CNC(=O)[C@@H](NC(=O)[C@H](CCCCN)NC(=O)[C@H](CCC(=O)O)NC(=O)[C@@H](NC(=O)[C@H](CCCCN)NC(=O)[C@H](CCCCN)NC(=O)[C@H](Cc1ccccc1)NC(=O)[C@@H](NC(=O)[C@H](CCCCN)NC(=O)[C@H](Cc1c[nH]c2ccccc12)NC(=O)[C@@H](N)CCCNC(=N)N)[C@@H](C)CC)[C@@H](C)CC)C(C)C)C(C)C)C(=O)N[C@H](C(=O)N[C@@H](CCCCN)C(=O)N[C@@H](C)C(N)=O)[C@@H](C)CC — MIC (KCCM 40203, Mueller-Hinton broth; 16 h, 37 °C; growth inhibition over 99%): 32 µM
CCCCCCCC(=O)N[C@@H](CCCCN)C(=O)N[C@@H](CCCCN)C(=O)N[C@@H](C)C(=O)N[C@@H](C)C(=O)N[C@@H](CCCCN)C(=O)N[C@@H](C)C(=O)N[C@@H](C)C(=O)N[C@@H](CCCCN)C(=O)N[C@@H](CCCCN)C(=O)N1CCC[C@H]1C(=O)N[C@@H](C)C(=O)N[C@@H](CCCCN)C(=O)N[C@@H](C)C(=O)N[C@@H](C)C(=O)N[C@@H](CCCCN)C(N)=O — MIC (broth microdilution; ATCC 17978; 18 h, 37 °C, compound alone): > 80 µM
CC[C@H](C)[C@H](NC(=O)CNC(=O)[C@H](CC(=O)O)NC(=O)[C@H](CCCNC(=N)N)NC(=O)[C@@H](NC(=O)[C@H](CC(N)=O)NC(=O)[C@H](CCCNC(=N)N)NC(=O)CNC(=O)[C@@H](NC(=O)[C@H](CCCCN)NC(=O)[C@H](CCC(=O)O)NC(=O)[C@@H](NC(=O)[C@H](CCCCN)NC(=O)[C@H](CCCCN)NC(=O)[C@H](Cc1ccccc1)NC(=O)[C@@H](NC(=O)[C@H](CCCCN)NC(=O)[C@H](Cc1c[nH]c2ccccc12)NC(=O)[C@@H](N)CCCNC(=N)N)[C@@H](C)CC)[C@@H](C)CC)C(C)C)C(C)C)C(=O)N[C@H](C(=O)N[C@@H](CCCCN)C(=O)N[C@@H](C)C(=O)NCC(=O)N1CCC[C@H]1C(=O)N[C@@H](C)C(=O)N[C@H](C(=O)N[C@@H](C)C(=O)N[C@H](C(=O)N[C@H](C(=O)NCC(=O)N[C@@H](CCC(N)=O)C(=O)N[C@@H](C)C(=O)N[C@@H](C)C(=O)N[C@H](C(=O)N[C@H](C(=O)N[C@H](C(=O)N[C@@H](CCC(=O)O)C(N)=O)C(C)C)C(C)C)[C@@H](C)O)C(C)C)C(C)C)C(C)C)[C@@H](C)CC — MIC (KCCM 40203, Mueller-Hinton broth; 16 h, 37 °C; growth inhibition over 99%): 2 µM
O=[N+]([O-])c1ccc(O)c2ncccc12 — MIC (broth microdilution; carbapenem-resistant clinical isolate): 8 µg/mL

Repeated from above:
O=[N+]([O-])c1ccc(O)c2ncccc12 — MIC (broth microdilution; carbapenem-resistant clinical isolate): 8 µg/mL
